Assay results of several laboratories.
Parts stem from different laboratories: compare values within a part only. Substitutions count along the parent as printed.

Sample 1
Target: Phosphate system positive regulatory protein PHO4, full length, GST-tagged (PHO4, Saccharomyces cerevisiae, UniProt P07270, residues 1-312)
Technique: competition protein-binding microarray
Molecule type: double-stranded DNA, one strand shown
Sample: in vitro
Concentration: 2 µM
Notes: whole 60-bp probe, lowest competitor level
With: Cbf1 competitor, 0.05 µM
Reading: higher = stronger binding
Constant ends, left off below: … GTCTTGATTCGCTTGACGCTGCTG
Residues (chain): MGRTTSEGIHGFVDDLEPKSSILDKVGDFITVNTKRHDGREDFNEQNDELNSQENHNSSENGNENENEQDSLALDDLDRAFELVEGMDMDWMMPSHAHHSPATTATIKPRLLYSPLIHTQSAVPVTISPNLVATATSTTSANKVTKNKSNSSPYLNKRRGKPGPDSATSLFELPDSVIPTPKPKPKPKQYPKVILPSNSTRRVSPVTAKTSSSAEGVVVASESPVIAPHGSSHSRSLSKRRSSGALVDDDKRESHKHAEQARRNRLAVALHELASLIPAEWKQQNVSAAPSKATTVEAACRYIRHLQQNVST
Strand | fluorescence intensity [a.u.]
CGTCCTAGTGATTTTCACGTGTTGTCCATGAGGAAG | 14700
CGTCCTAGTGATTGTCACAGTACTTCCATGAGGAAG | 4720
AAATTACTAAGTTTTCACGTGCCTTACCCCGTATGA | 13700
CTTTCCCGATCTTGGGTAGTGGGTGTAGCACATTTG | 5070
CCGCCCGGTGCAATACACACGGCAAGCACTTTATCA | 5500
CATACCCAACCTTGCTATGTGGGTGAAGATATTTGT | 4470
TCTAATCTCTAAGTACACGTGCAAATGGACCTATCA | 16800
ATTATCTAGGTGCTACACGTGTTGGGACAGACTTAT | 20700
TTTCCTGTTGTGGGTCATATGACTTTGAACCAAATG | 3600

Sample 2
Target: CCNB3, cyclin fold, Cln2 fusion (human)
Technique: yeast growth competition, sequencing
Sample: yeast
Notes: weak parent motif
Reference: not given
Reading: higher = stronger binding
Starting sequence: SLBP docking peptide (human); ARYKRKLLINDFG; partner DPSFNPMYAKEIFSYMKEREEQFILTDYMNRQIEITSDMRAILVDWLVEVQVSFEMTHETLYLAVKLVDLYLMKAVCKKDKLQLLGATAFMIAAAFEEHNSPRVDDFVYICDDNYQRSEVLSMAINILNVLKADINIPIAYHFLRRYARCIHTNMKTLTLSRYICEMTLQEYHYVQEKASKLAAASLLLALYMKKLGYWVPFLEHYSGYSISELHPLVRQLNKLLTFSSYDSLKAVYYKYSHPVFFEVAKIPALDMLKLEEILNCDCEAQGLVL
Change | normalised enrichment score
ARYKFKLLINDFG [R5F] | 0.17
ARYKRKLLINDFS [G13S] | -0.346
DRYKRKLLINDFG [A1D] | 0.667
ARYKRKLQINDFG [L8Q] | 0.119
ARYKDKLLINDFG [R5D] | 0.255
ARYKRKLLINDGG [F12G] | 0.049
ARYKRKLLITDFG [N10T] | 0.13
ERYKRKLLINDFG [A1E] | 0.205

Sample 3
Target: ABI1, truncated, D143A, DHFR fusion (Arabidopsis thaliana)
Technique: DHFR PCA, deep sequencing
Sample: yeast
Notes: methotrexate growth selection, single substitutions
With: (+)-ABA 4.8 µM
Reference: wild-type fitted maximum
Reading: higher = stronger binding
Starting sequence: PYL1, truncated, DHFR fusion (Arabidopsis thaliana); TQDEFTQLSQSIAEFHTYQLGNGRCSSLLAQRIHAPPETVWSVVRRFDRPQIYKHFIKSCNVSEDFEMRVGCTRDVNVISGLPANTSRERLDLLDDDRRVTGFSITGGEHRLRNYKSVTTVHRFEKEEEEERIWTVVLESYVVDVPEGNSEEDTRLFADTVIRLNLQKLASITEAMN
Change | relative binding score
V145M | -3.87%
F157S | -7.5%
F47W | 21.6%
S26P | 5.6%
E130D | 82.1%
S27W | 1.08%
F66M | 53.5%

Single results of other studies
Substance | target | assay | system | conditions | how to read | endpoint | result
PhoQ, residues 284 288 289 292 302 303 SIHMAM | PhoP, residues 12 14 15 18 19 HLGGL (Escherichia coli, UniProt P23836) | Sort-seq, item: YFP reporter | E. coli | PhoQ-PhoP variant library, with: 10 µM Mg2+ | reference: high Mg2+ state, higher = stronger signaling | fold induction | 1.55

A few entries again (sample 1):
Strand | fluorescence intensity [a.u.]
CGTCCTAGTGATTTTCACGTGTTGTCCATGAGGAAG | 14700
TCTAATCTCTAAGTACACGTGCAAATGGACCTATCA | 16800
CCGCCCGGTGCAATACACACGGCAAGCACTTTATCA | 5500
AAATTACTAAGTTTTCACGTGCCTTACCCCGTATGA | 13700
